Assay results collected from several papers.
Compare with care: the assays were run in different laboratories. Numbers after ± are the reported error.
Urease: Urease (Canavalia ensiformis, UniProt P07374)
UniProt P07374, sequence (whole entry, looked up): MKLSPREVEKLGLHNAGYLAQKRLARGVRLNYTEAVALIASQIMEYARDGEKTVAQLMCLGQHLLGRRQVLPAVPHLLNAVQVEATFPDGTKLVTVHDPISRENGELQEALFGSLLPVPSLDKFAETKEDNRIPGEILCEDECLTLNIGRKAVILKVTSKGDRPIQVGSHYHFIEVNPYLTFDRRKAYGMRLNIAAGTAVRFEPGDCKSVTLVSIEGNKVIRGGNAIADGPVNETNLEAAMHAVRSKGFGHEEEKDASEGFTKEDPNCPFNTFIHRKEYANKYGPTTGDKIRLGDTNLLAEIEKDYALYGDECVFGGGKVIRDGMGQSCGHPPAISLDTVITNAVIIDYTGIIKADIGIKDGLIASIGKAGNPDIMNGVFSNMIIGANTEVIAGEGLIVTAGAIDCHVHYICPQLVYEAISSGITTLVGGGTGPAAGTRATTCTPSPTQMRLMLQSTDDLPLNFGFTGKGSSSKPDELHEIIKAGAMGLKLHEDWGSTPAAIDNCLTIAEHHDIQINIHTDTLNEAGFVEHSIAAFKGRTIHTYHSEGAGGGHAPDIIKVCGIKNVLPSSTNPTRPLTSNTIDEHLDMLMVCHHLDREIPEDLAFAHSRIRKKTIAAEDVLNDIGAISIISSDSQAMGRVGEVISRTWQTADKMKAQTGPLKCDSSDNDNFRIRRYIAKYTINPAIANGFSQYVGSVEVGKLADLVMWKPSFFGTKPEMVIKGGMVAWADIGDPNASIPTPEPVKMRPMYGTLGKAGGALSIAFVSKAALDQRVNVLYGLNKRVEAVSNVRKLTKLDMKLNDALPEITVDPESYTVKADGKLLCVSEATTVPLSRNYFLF
PDE1C: Dual specificity calcium/calmodulin-dependent 3',5'-cyclic nucleotide phosphodiesterase 1C (PDE1C, Homo sapiens, UniProt Q14123)
UniProt Q14123, sequence (whole entry, looked up): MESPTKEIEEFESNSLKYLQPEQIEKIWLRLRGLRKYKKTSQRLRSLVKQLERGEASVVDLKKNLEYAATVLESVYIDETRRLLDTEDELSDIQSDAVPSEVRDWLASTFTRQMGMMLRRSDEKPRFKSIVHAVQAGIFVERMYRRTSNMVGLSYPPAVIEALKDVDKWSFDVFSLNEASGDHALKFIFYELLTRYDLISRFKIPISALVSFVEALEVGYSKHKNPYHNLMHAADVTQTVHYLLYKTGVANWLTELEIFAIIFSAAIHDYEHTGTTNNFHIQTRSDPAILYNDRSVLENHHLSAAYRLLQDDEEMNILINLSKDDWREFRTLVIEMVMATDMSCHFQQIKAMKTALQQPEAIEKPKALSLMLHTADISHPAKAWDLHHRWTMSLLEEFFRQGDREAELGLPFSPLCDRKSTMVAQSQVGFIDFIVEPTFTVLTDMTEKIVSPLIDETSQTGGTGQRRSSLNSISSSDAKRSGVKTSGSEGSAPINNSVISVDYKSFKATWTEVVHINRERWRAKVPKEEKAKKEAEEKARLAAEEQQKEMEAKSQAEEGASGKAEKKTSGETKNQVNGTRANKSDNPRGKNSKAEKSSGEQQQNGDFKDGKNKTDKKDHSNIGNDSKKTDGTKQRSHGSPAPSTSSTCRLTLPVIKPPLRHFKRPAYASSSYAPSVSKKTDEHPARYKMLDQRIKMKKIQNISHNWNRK
SNCA pre-formed fibrils: Alpha-synuclein, pre-formed fibrils (SNCA, Homo sapiens, UniProt P37840)
SYK tandem SH2 domains: Tyrosine-protein kinase SYK, tandem SH2 domains (SYK, Homo sapiens, UniProt P43405)
crk3 with CYC6: crk3, with CYC6 (Leishmania mexicana, UniProt O15851)
UniProt P14416, sequence (whole entry, looked up): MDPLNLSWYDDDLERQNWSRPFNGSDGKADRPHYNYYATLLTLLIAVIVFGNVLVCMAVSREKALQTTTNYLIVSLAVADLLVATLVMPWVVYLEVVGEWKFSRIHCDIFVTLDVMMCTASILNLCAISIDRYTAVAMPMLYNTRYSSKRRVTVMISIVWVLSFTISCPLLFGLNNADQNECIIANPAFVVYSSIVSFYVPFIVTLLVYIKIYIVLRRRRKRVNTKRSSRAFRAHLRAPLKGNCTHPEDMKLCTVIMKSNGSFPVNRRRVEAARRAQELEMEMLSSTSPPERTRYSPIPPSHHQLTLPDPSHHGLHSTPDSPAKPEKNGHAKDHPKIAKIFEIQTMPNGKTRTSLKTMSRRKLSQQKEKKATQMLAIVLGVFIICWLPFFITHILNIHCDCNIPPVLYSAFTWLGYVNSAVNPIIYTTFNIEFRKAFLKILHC
UniProt P53341, sequence (whole entry, looked up): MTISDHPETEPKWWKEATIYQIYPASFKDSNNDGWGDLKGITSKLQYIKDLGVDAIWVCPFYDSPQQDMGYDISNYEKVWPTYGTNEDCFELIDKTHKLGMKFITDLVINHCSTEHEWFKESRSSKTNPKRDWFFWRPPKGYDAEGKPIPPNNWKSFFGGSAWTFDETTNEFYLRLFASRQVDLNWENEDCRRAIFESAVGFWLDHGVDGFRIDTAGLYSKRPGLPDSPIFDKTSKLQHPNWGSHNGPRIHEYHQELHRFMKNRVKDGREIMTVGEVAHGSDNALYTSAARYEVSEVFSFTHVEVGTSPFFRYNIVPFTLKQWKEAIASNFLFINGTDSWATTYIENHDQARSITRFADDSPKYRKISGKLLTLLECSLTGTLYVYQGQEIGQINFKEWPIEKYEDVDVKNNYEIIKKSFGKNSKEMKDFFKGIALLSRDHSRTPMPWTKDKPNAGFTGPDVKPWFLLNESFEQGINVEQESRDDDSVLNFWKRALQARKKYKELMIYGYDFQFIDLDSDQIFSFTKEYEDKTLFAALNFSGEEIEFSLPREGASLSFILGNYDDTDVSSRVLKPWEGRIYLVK
UniProt P00915, sequence (whole entry, looked up): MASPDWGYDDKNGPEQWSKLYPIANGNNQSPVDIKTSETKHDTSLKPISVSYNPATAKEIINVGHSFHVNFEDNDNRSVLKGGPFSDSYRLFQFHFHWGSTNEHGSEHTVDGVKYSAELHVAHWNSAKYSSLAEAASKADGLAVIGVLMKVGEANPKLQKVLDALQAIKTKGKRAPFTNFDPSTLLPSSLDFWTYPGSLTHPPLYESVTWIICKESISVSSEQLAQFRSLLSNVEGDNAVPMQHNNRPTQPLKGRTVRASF
UniProt P21453, sequence (whole entry, looked up): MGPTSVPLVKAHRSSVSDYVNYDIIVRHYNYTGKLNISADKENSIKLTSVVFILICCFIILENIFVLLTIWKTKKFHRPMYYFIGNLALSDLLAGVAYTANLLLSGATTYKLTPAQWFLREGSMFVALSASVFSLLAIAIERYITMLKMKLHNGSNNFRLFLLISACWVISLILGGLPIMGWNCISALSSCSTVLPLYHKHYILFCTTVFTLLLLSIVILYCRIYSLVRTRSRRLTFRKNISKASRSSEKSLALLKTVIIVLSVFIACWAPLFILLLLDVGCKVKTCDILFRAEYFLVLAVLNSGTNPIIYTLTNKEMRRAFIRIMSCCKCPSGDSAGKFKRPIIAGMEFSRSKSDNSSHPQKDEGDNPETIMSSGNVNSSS
UniProt P20273, sequence (whole entry, looked up): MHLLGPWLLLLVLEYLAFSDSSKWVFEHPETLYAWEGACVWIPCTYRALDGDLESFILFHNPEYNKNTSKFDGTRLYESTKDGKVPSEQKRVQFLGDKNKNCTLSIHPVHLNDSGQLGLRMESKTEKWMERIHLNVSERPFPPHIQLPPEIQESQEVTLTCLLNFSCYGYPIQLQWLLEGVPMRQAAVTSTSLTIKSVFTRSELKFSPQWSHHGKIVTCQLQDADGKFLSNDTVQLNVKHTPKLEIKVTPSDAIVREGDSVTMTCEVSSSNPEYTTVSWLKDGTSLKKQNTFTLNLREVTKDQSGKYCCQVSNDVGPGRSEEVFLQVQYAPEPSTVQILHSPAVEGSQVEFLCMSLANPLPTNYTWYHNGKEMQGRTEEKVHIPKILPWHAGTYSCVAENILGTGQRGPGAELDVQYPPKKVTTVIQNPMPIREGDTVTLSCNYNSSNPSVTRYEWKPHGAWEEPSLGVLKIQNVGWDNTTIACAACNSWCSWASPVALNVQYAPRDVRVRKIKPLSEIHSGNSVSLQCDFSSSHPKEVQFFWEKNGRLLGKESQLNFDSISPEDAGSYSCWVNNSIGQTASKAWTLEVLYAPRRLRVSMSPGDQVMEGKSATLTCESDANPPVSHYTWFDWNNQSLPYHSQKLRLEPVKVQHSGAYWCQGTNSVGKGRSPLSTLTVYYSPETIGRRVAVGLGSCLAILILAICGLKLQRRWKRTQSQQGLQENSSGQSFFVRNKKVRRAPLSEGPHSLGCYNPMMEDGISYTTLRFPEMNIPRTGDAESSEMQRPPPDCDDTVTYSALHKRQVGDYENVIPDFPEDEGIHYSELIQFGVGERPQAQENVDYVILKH
UniProt Q86WV6, sequence (whole entry, unmodified, looked up): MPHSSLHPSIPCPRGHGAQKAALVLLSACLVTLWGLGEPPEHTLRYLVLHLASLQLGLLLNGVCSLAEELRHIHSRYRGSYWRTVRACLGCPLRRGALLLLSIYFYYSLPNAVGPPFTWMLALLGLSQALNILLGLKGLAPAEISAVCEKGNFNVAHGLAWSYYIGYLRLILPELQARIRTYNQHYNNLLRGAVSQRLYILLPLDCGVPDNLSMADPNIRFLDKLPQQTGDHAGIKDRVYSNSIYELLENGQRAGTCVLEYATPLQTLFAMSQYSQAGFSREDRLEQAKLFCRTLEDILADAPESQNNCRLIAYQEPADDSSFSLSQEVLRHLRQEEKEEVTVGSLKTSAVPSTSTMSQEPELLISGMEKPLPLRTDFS
UniProt O95931, sequence (whole entry, looked up): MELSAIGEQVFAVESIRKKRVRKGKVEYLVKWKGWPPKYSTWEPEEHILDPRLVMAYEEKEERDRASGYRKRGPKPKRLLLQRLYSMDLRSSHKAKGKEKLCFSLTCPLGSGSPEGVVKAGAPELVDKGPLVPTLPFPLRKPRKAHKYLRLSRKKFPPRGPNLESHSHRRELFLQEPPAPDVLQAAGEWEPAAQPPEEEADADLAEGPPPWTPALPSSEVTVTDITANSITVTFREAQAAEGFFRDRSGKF
UniProt P40306, sequence (whole entry, looked up): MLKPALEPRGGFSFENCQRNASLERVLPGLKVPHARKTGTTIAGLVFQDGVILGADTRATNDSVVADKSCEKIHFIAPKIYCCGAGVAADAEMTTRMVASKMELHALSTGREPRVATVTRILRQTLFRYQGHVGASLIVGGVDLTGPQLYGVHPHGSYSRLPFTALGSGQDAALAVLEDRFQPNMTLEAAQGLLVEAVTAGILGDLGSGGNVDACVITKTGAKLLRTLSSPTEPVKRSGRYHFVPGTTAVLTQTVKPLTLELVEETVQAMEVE

With `CC[C@H](C)[C@H](N)C(=O)NS(=O)(=O)CC(=O)N[C@@]1(C(=O)O)[C@@H](OC(=O)[C@@H](N)[C@@H](C)c2ccccc2)C[C@H]2C(C(N)=O)=CN(C)C[C@H]21` the IC50 was 2.4 µM (CA1 (Homo sapiens, UniProt P00915); enzyme activity, inhibitor, absorbance).
`COc1cc(OC)c(/N=N/c2cccc(C(=O)NO)c2)c(OC)c1` gave an IC50 of 86 µM (Urease; enzyme activity, inhibitor, absorbance; pH 7.3).
For `CCC(C)C(NC(=O)C(Cc1ccccc1)NC(=O)c1ccc(C(C)(C)C)cc1)C(=O)NC(CC(C)C)C(=O)NC(CCCCN(C)C1CC2CCC1C2)C(=O)NC(CO)C(N)=O` (centres unmarked), the IC50 was greater than 30 µM (Chromobox protein homolog 7 (Homo sapiens, UniProt O95931); ligand displacement, TR-FRET).
The IC50 of `C#Cc1ccc2nc(C3(NC(=O)c4cc(-c5ccc(F)cc5F)on4)CCN(C(=N)c4ccc([N+](=O)[O-])o4)CC3)[nH]c2c1` is reported as 1.28 µM (STING1 (Homo sapiens, UniProt Q86WV6, H232R); reporter gene).
`N#Cc1ccccc1-c1cc(CN2c3ccccc3C=Cc3ccccc32)on1` has an IC50 of 15.6 µM (Urease; enzyme activity, inhibitor).
For `Cc1ccc2nc(C)n(/N=C/c3ccc(C(=O)O)cc3)c(=O)c2c1`, the IC50 was 103 ± 4.17 µM (XDH (Bos taurus, UniProt P80457); enzyme activity, inhibitor).
`CCOc1cc(-c2cc(CN3c4ccccc4C=Cc4ccccc43)on2)ccc1Cl` has an IC50 of 27 µM (Urease; enzyme activity, inhibitor).
The IC50 of `C[C@@H](Nc1nc2c(cnn2C(C)(C)C)c(=O)n1Cc1cccc(F)c1)c1ccccn1` is reported as 0.0004 µM (PDE1C; enzyme activity, inhibitor, radiometric).
`CCCCCCCCN(Cc1ccc(CNC(=O)OCCOC23CC4CC(C2)CC(C(N)C(=O)N2C(C#N)CC5CC52)(C4)C3)cc1)CC(O)C(O)C(O)C(O)CO` (centres unmarked) has an IC50 of 1.3 µM (Dipeptidyl peptidase 8 (Homo sapiens, UniProt Q6V1X1); enzyme activity, inhibitor; with preincubation).
The IC50 of `Cn1cc(-c2ccc3cc(NC(=O)Nc4cccc(C(=O)NO)c4)ccc3c2)cn1` is reported as 8.12 µM (SNCA pre-formed fibrils; binding to mouse LAG3 D1, inhibitor, ELISA; together with: FLAG-α-syn PFFs 100 nM).
The IC50 of `N#Cc1ccc(-c2cc(CN3c4ccccc4C=Cc4ccccc43)on2)cc1` is reported as 8.19 µM (Urease; enzyme activity, inhibitor).
`Cn1c(=O)c2c([nH]c(=O)n2C)n(C)c1=O` gave an IC50 of greater than 100 µM (SYK tandem SH2 domains; binding, inhibitor, TR-FRET; together with: FITC-FCER1G phospho-ITAM peptide).
With `COc1cc(OC)c2c(=O)cc(-c3cc(C)c(OCCCN4CCN(C)CC4)c(C)c3)oc2c1` the IC50 was 1.59 µM (Bromodomain-containing protein 3, BD2 (BRD3, Homo sapiens, UniProt Q15059); cell-free assay, TR-FRET).
With `CC(C)(COC(=O)/C=C/c1ccc(Cl)cc1Cl)CC1=C(O)C(=O)c2ccccc2C1=O` the IC50 was 10.6 µM (MAL12 (Saccharomyces cerevisiae S288c, UniProt P53341); enzyme activity, inhibitor).
`CC(C)C[C@H](NC(=O)[C@H](Cc1ccc(CN)cc1)NC(=O)[C@H](Cc1ccccc1)N=[N+]=[N-])C(=O)N[C@H](C(=O)[C@@]1(C)CO1)C1CCCCC1` gave an IC50 of 4.79 µM (Proteasome subunit beta type-10 (Homo sapiens, UniProt P40306); enzyme activity, inhibitor; lysate).
For `CC(=O)N(C)CCN1CCN(c2cnc3c(cc(C(=O)NCc4ccc(Cl)cc4)c(=O)n3CC(=O)N3CC(C)(F)C3)n2)C1=O`, the IC50 was 0.839 µM (DNA polymerase catalytic subunit (Human cytomegalovirus, UniProt P08546); enzyme activity, inhibitor).
`Cc1cc(-c2ccc(S(=O)(=O)C3CC(C(=O)NC4(C#N)CC4)N(C(=O)C4(C(F)(F)F)CC4)C3)c(C(F)(F)F)c2)ccn1` (centres unmarked) has an IC50 of greater than 10 µM (CAPN1 (Homo sapiens, UniProt P07384)).
The IC50 of `CCN(CC)Cc1ccc2cc(COC(=O)Nc3cccc(C(=O)NO)c3)ccc2c1` is reported as 5.78 µM (SNCA pre-formed fibrils; binding to RAGE, inhibitor, ELISA; together with: FLAG-α-syn PFFs 100 nM).
With `Cc1cc(C)c(S(=O)(=O)N(CC(=O)O)c2ccc(Nc3ccnc(N4CCCC4)n3)cc2)c(C)c1` the IC50 was greater than 100 µM (ATM (Homo sapiens, UniProt Q13315); enzyme activity, inhibitor).
With `O=C(Cc1ccc(OCc2ccccc2)cc1)NC1(C(=O)O)CCN(C(=O)c2ccc(-c3cccc(Cl)c3)cc2)CC1` the IC50 was greater than 10 µM (S1PR1 (Homo sapiens, UniProt P21453); antagonist, GloSensor cAMP).
With `CC(=O)N[C@H]1[C@H]([C@H](O)[C@H](O)CNC(=O)c2ccc(-c3ccccc3)cc2)O[C@@](OCc2cccc(Cl)c2Cl)(C(=O)O)C[C@@H]1O` the IC50 was 1.24 ± 0.13 µM (CD22 (Homo sapiens, UniProt P20273); ligand binding, inhibitor, competitive bead binding flow cytometry; together with: 6'SLN(Gc)-PAA-biotin beads).
For `CC(C)(C)n1ncc2c(=O)n(Cc3cccc(F)c3)c(NCc3ccc(Cl)nc3)nc21`, the IC50 was 0.0019 µM (PDE1C; enzyme activity, inhibitor, radiometric).
With `Cc1nn(-c2cccc(N)c2)c(=O)c2cnc(Nc3ccc(N4CCNCC4)cc3)nc12` the IC50 was greater than 10 µM (KDR (Homo sapiens, UniProt P35968); enzyme activity, inhibitor).
With `C=C(NC(=O)c1csc(-c2nc3c(cc2O)-c2nc(cs2)C(=O)NC(C(C)O)C(=O)NC(=C(C)OC)c2nc(cs2)C(=O)NC2c4nc(cs4)C(=O)NC(COC(=O)c4c5c6c(cccc6n4O)COC(=O)C(OC4CC(C)(O)C(N(C)C)C(C)O4)C2OC5)c2nc-3cs2)n1)C(N)=O` (centres unmarked) the IC50 was 2.8 µM (SLCO1B1 (Homo sapiens, UniProt Q9Y6L6); transporter uptake, inhibitor; HEK293; 10 min, pH 7.4).
With `CN1CCN(C(=O)c2ccc(-c3cc4nccc(-c5ccc6cnccc6c5)c4o3)cc2)CC1` the IC50 was 0.27 µM (SYK (Homo sapiens, UniProt P43405); enzyme activity, inhibitor).
`CC(C)(C)n1ncc2c(=O)n(Cc3cccc(F)c3)c(NCc3ccc(C(F)(F)F)nc3)nc21` has an IC50 of 0.0039 µM (PDE1C; enzyme activity, inhibitor, radiometric).
The IC50 of `O=C(Nc1cc(Cc2ccccc2)[nH]n1)C1CCC1` is reported as 11 µM (crk3 with CYC6; enzyme activity, inhibitor, radiometric; together with: Leishmania major CYC6 cyclin, 1 µM ATP).
`O=C(COC(=O)c1ccccc1Nc1cccc(C(F)(F)F)c1)Nc1cccc(C(F)(F)F)c1` has an IC50 of 99.9 µM (PTGS1 (Ovis aries, UniProt P05979); enzyme activity, inhibitor).
With `CN1CCC(n2cc(-c3ccc4cc(NC(=O)Nc5cccc(C(=O)NO)c5)ccc4c3)cn2)CC1` the IC50 was 1.45 µM (SNCA pre-formed fibrils; binding to mouse LAG3 D1, inhibitor, ELISA; together with: FLAG-α-syn PFFs 100 nM).
`COc1cc2c(cc1NS(=O)(=O)c1ccc(Br)cc1C)n(C)c(=O)n2C` has an IC50 of 16.5 µM (Transcription initiation factor TFIID subunit 1-like, BD2 (TAF1L, Homo sapiens, UniProt Q8IZX4)).
The IC50 of `O=C(Nc1cc(-c2ccc(Cl)cc2)[nH]n1)c1cccc(O)c1` is reported as 1.1 µM (crk3 with CYC6; enzyme activity, inhibitor, radiometric; together with: Leishmania major CYC6 cyclin, 1 µM ATP).
With `CC(C)n1c(N(C)C)nc2c1c(=O)[nH]c(=O)n2C` the IC50 was greater than 100 µM (SYK tandem SH2 domains; binding, inhibitor, TR-FRET; together with: FITC-FCER1G phospho-ITAM peptide).
`CCc1ccc(NS(=O)(=O)c2c(C)[nH]c(C)c2C(=O)N2CCCC2)cc1` gave an IC50 of greater than 100 µM (DRD2 (Homo sapiens, UniProt P14416)).
The IC50 of `CCN(CC)CC(=O)Nc1cccc(-n2cc(-c3ccc4ccc(-c5cn(-c6cccc(NC(=O)CN(CC)CC)c6)nn5)cc4c3)nn2)c1` is reported as greater than 10 µM (PAK2 (Homo sapiens, UniProt Q13177); enzyme activity, inhibitor).
With `COc1cc(O)c2c(c1)CCC21C=CC(=O)CC1` (centres unmarked) the IC50 was 1020 ± 90 µM (rat intestinal maltase; inhibitor; rat intestinal acetone powder; 10 min, 37 °C, together with: maltose 10 mM).
